Experimental data from different studies.
Every numbered part comes from another study and shows a few of its results, in no order.

Study 1
Target: RING finger protein unkempt homolog, zinc fingers 1-6, GST-SBP tag (UNK, Homo sapiens, UniProt Q9C0B0, residues 30-357)
Technique: RNA Bind-n-Seq
Molecule type: RNA
Sample: in vitro
Concentration: not given
Setting: RNA with constant flanks, human and mouse sites, ends assumed
Reference: input RNA pool
Reading: higher = stronger binding
Measurement: bound/input enrichment
All sequences stand within: GGGAGUUCUACAGUCCGACGAUC … CAACAGAGGAUUGAGCAUCA
Residues (chain): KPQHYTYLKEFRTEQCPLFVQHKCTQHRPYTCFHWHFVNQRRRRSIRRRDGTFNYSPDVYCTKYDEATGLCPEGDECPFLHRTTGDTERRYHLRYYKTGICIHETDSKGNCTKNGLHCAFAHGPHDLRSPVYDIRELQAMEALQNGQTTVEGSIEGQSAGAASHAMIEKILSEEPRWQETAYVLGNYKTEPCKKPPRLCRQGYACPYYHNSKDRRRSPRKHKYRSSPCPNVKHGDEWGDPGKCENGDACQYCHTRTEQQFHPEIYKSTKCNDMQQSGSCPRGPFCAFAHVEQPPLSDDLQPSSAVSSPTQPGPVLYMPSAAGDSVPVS
Strand = GGAGCAACUCAAGGAUUGAGGACUGGUUUUACAAAUAUACCAAGUAGAUAUGGAACUAAUAAUAGAAUUGGACAACCAAGACCAUGAUAGACUCUAACUUAUUUUUAUAAGGAAUAUUGA; value = 2.43 ratio
Strand = GUGUAGGGGUGGUCAGAAUUGUUUCCCAUUCCAUAAUGCCUGAUGUUAUUUUCAAGUUUUAUAUUAUCUUAAGGUGUAUAUGUUUGUUUUCGUUUUAUAUAUAUUAUAUAUAAAUAGAUC; value = 0.693 ratio
Strand = UGAAAAUAAUCGUCACCCAGAAAAUCCAGAAAACUGAAGAUUUCAUCAGUUGGAAACAGUAGCACUUUGAAAACUUUUUAGGCCAGCUUUAAUUUAAUGGCCCUACUGAUAUUCACAUCG; value = 0.888 ratio
Strand = GAUGCAGUUCUUAUUGAUUACCAGAGAAAUGUACCAGCUGCUAGAGAACCAGAAGUGCUUAGUACUAUGGCCAUUAUUGUCAACAAAUUAGGUGGACAUAUAACAGCUGAAAUACCUCAA; value = 0.329 ratio
Strand = AGCCAAUUUUUGCUUUCAUUGCAAGCUAUAUCUACAAUGGUACAUUUUUACAUGGGAACAAAAGGACCUGAAAAUCCUCAAGUUGAAGUGUUAUCAGAGGAAGAAGGGGAAGAAGAAGAG; value = 0.212 ratio
Strand = CAGGUACAGGAACAGAAGGCACAUCUUCGAGCUGCACAAGACCGUGUUCUUUCUCUGGAAACCAGUGUCAGUGAACUAAGCAGUCAGUUAAAUGAAAGCAAGGAGAAGGUCUCGCAGCUU; value = 0.154 ratio
Strand = CUCAGAGACGUGGCAUAUCAAUAUGUGAAAAAGGGGUCUCGAAUUUAUUUGGAAGGGAAAAUAGACUAUGGUGAAUACAUGGAUAAAAAUAAUGUGAGGCGACAAGCAACAACAAUCAUA; value = 0.641 ratio
Strand = UCACCCCAGAGCAUUUUAGAUGAUGUUGCCAUGGUACUUGAUGAAGAAGCAGAAGUUUUUAUAGUCAAAAUGUGGAGAUUAUUGAUAUAUGAAACAGAAGCCAAGAAAAUUGGUCUUGUG; value = 0.314 ratio
Strand = GGUGAGAGCAUCAUGGUGGAACUUGCUGCUGGGCCUUUCGAGAAUGCUGAAAAGUUGCCAGUAGUUAUCAGGGUGCCAAAACUGAUGGGUUACUCAGUCAUGAGUGUAUGCUCCGUGCCU; value = 0.0889 ratio
Strand = GCCUCCCUGAUUCCUGUGGGAACCCCGGGUUCAGGGCCAGGGCCUCCUUGGAAUAAAUGGUUAUUGUUACUAGGUCCCCACCUUCCCUCUUUUCUGGAAGCCAAAGUCACCCUCCCCAAU; value = 0.367 ratio
Strand = UAUGGUGUAUUCCAGUUUAAAGUGGAUUACAACCGGCUAGGCUACACACACCUGUACUCUUCCACUCAGGUAUCCGUGCGGCCACUCCAGCACACGCAGUAUGAGCGCUUCAUCCCCUCG; value = 0.214 ratio

Study 2
Target: Prothrombin, mature alpha-thrombin (F2, Homo sapiens, UniProt P00734)
Technique: aptamer microarray, sandwich
Molecule type: DNA with 2'F-ANA
Sample: in vitro
Concentration: 200 nM
Setting: whole 15-mer aptamer, many near background
Added: Cy3 exosite-II aptamer, 400 nM
Reading: higher = stronger binding
Measurement: mean fluorescence intensity
Strand: GGTTGGTGTGGTTGG
Modification = 2'F-ANA at 1 3 4 5 6 7 8 12 13 14 15; value = 52.4 a.u.
Modification = 2'F-ANA at 3 4 6 12 14; value = 336 a.u.
Modification = 2'F-ANA at 1 2 3 4 7 11 12 13 15; value = 376 a.u.
Modification = 2'F-ANA at 1 10 11 15; value = 52.9 a.u.
Modification = 2'F-ANA at 1 2 3 6 8 10 11 12 13 15; value = 77.9 a.u.
Modification = 2'F-ANA at 1 3 8 9 10; value = 83.6 a.u.
Modification = 2'F-ANA at 4 6 7 9 10 11 12 13 14; value = 82.9 a.u.
Modification = 2'F-ANA at 2 3 4 5 6 10 11 13; value = 58.8 a.u.
Modification = 2'F-ANA at 1 2 5 8 9 10 11 14 15; value = 49.3 a.u.
Modification = 2'F-ANA at 1 6 11; value = 144 a.u.
Modification = 2'F-ANA at 1 4 6 7 8 12 13 14 15; value = 59.8 a.u.
Modification = 2'F-ANA at 1 3 5 6 7 9 13 15; value = 49.4 a.u.
Modification = 2'F-ANA at 1 4 5 8 9 10 11 13 15; value = 60.2 a.u.
Modification = 2'F-ANA at 2 3 4 6 8 9 12; value = 786 a.u.
Modification = 2'F-ANA at 1 6 8 9 10 14 15; value = 49.5 a.u.
Modification = 2'F-ANA at 1 2 3 4 5 9 10 11 13 15; value = 45.8 a.u.
Modification = 2'F-ANA at 5 7 8 9 14 15; value = 48.4 a.u.
Modification = 2'F-ANA at 4 8 11 13 14; value = 94.8 a.u.
Modification = 2'F-ANA at 1 2 3 4 5 7 10 11 12 14; value = 67.5 a.u.
Modification = 2'F-ANA at 1 2 3 4 5 7 11 12; value = 81.6 a.u.

Study 3
Target: RNA binding protein fox-1 homolog 2, RRM domain, GST-SBP tag (RBFOX2, Homo sapiens, UniProt O43251-10, residues 100-194)
Technique: RNA Bind-n-Seq
Molecule type: RNA
Sample: in vitro
Concentration: 365 nM
Setting: natural RNA segment, single round, ends assumed
Reference: no-protein control
Reading: higher = stronger binding
Measurement: RBNS enrichment (R)
All sequences stand within: GGGAGUUCUACAGUCCGACGAUC … UGGAAUUCUCGGGUGCCAA
Residues (chain): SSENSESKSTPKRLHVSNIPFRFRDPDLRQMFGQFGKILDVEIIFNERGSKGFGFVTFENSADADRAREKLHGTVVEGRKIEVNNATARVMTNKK
Strand = UAGAGAGCCAUAAAUAACUCUCUGGUGAAGUGAUUUGCUAUAAUGGGGGUGAGGAGUGGGGAGACUUCUCUGGUCAUUACACUGCUAUUUAUUUCUAGAACUCACUAUCA; value = 0.357
Strand = UCGAGAAGAAAAGGAGAGUAAGAAGGAAAGAGAAGAAGAAUUUAAAACUCACCAUGAAAUGAAAGAAUACUCAGGCUUUGCAGGAGUUAGCCGACCACGAGGAACCUUGU; value = 0.591
Strand = CAAGCUAGCCCCUUAUCCAGCCAACACUGCACCUAACCCCAGGGAUUUGCUACCAGAGCAAACUCAGUUCUGCCUGUCCCUGAAGUAUGACCAGGAGACAGCCAGUUUCA; value = 0.631
Strand = AGUGUUUUCUUCCCUGUGCCUUAAGGGCCCUCAUCCCAGCAGCCCAUAUAGCCAGCAAAUGGAGGACUCCUAACUUCAGCACAAGUGGGUUUGGAGUGGCAGAGGCCAUA; value = 0.331
Strand = UCAUCAUAGCUGGCACCAGCGCCUAUGCUCGCCUCAUUGACUACGCCCGCAUGAGAGAGGUGUGUGAUGAAGUCAAAGCACACCUGCUGGCAGACAUGGCCCACAUCAGU; value = 1.28
Strand = CAUAAACUCCUCCCUUUGGGAGGCUGGCAAAAAAGGGGCUGUGCUCUCCCUGGUUAAGCAGUUUGUACUACAGAACCCCCGAGCUGCUGUGGGUCCUACAGGUGCUUCCA; value = 0.395
Strand = UGCCACAUUGGUUAAGUGCCAUCAUUUGUAAUGCAAUGUGUCACUUGAAAAGAGAUUUGAAGAAACUGACAACUUCAAAAACAAAUGAGAAGCCCAAGGAACUGUGAGCA; value = 5.5
Strand = UUUCCUGAAGUGUUUAUUUUCUCUCAUAUCCACCAAACGUGAAUCCUGUUCCUGAUGGCCCGUUAUUGGACACUGGUGAUGCUAUUAUCCUGUAUUAUUUAUUAAUAUCC; value = 0.554
Strand = CCCUGAAGAAUCCACAACCAUCCUUCCAAGGUUCUCCAUCCCCACAAUGACUAGCUGUUGCUCUCCAAGCUAAGGGACCAUUCCCUGUCUUAUGCAUAUACGUAAUGUCA; value = 0.425
Strand = GAGUGGUUGGAGAGACUUGCGAAGGCGGCUGGGGUGUUCGGAUUUCCAAUAAAGAAACAGAGUGAUGCUCCUGUGUCUGACCGGGUUUGUGAGACAUUGAGGCUGUCUUG; value = 0.754
Strand = ACUCAUUUUUUGUAUUUUUAGUAGAGAAGGGGUUUUACCGUGUUAGCCAGGCUGGUCUUGAACUCCUGACCUUGGGUGAUCCACCUGCCUCAGCCUCCCAAAGUGCUGGG; value = 0.633
Strand = GUGAGAGCCAGAUCUAGAGAGUCAGAACCCGGGGGUCUUGAGAUAGGAGGCAAAGCAGCUAUGGAAGGGCUUUUGCUGGUUAAUCAUUUCUGAGGUGAAAGACCUUCUUC; value = 1.26

Study 4
Target: Ras GTPase-activating protein-binding protein 1, full length (G3BP1, Homo sapiens, UniProt Q13283)
UniProt Q13283, sequence (whole entry, looked up): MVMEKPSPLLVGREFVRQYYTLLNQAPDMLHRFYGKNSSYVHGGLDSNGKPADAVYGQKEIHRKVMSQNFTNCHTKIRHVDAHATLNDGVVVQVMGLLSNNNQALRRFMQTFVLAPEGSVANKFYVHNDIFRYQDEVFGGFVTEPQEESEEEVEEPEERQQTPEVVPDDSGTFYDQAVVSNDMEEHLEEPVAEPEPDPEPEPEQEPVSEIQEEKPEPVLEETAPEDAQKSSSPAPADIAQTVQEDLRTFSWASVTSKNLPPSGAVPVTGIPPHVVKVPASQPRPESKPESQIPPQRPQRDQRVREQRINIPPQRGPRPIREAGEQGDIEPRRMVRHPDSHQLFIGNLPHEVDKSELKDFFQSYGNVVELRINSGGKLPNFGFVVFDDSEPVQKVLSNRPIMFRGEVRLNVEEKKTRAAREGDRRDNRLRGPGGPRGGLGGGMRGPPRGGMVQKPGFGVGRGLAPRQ
Technique: RNA Bind-n-Seq
Molecule type: RNA
Sample: in vitro
Concentration: 200 nM
Setting: whole 134-nt RNA, ends assumed
Added: 150 mM KCl
Reference: input library
Reading: higher = stronger binding
Measurement: log2 enrichment
All sequences stand within: GGGAGUUCUACAGUCCGACGAUC … UGGAAUUCUCGGGUGUCAAGG
Strand = CCUGUGCUACACAUCGUAUGUACCGAAUCGGAAAAAAAGGGAAAAAAAGGGAAAAAAAGGGAAAGUAUUAUGUUACGCCGUUCGGAUCUG; value = -0.974
Strand = UGGCCCUGGUGGCAUGCGGGGAGGAAGAGGUGGCCGCAUGGAUCGUGGUGGUCCCGGUGGAAUGUUCAGAGGUGGCCGUGGUGGAGACAG; value = 0.367
Strand = CCUGUGCUACACAUCGUAUGUACCGAAUCGGGGUUUUUUGGGUUUUUUGGGGUUUUUUGGAAAGUAUUAUGUUACGCCGUUCGGAUCUGC; value = -0.577
Strand = UCCUCAAGUCCUGUGCUACACAUCGUAUGUACCGAAUCGGAGGAAAGGUGGAAAGUAUUAUGUUACGCCGUUCGGAUCUGCACUUCCAGC; value = -0.742
Strand = CCUGUGCUACACAUCGUAUGUACCGAAUCGGGGUGGGGAAAAAAAGGGGAAAAAAAGGGGAAAGUAUUAUGUUACGCCGUUCGGAUCUGC; value = 0.105
Strand = ACCAUGCAGGUGGGCAUCUUUGGGAAGUGGGGCAAGGGGGGGAUAGGGAGGUGGGUAACACUUUGGGAACAGGUGGUCCCAGGUCGUUUC; value = 1.23
Strand = UUUGCAGGAUUAAUCACUCCUGAAGAUCGGAAAUAUGGAACAACAAAUCUUCACUUAGAUGUAUCUGAUGCAGCUAAUGUCAUGGUCUAU; value = -2.38
Strand = UCCUGUGCUACACAUCGUAUGUACCGAAUCGGGGUUUUUUUGGGGAGGGGAAAAAGGGGAAAGUAUUAUGUUACGCCGUUCGGAUCUGCA; value = 0.446
Strand = GCAGGAAGUAAAAACAAAUGGAAAUGCUUCGGAUAGUGGCAGGGGUGGGGGUUGCUAAGGAAAGGGUGGGAUGGGUGUGGGUAAAGAGUU; value = 0.999
Strand = UCAAGUCCUGUGCUACACAUCGUAUGUACCGAAUCGUGUGUGUGUGUGUGUGUGUAAAGUAUUAUGUUACGCCGUUCGGAUCUGCACUUC; value = 0.206

Some of these lines once more (study 3):
Strand = UCGAGAAGAAAAGGAGAGUAAGAAGGAAAGAGAAGAAGAAUUUAAAACUCACCAUGAAAUGAAAGAAUACUCAGGCUUUGCAGGAGUUAGCCGACCACGAGGAACCUUGU; value = 0.591
Strand = CAAGCUAGCCCCUUAUCCAGCCAACACUGCACCUAACCCCAGGGAUUUGCUACCAGAGCAAACUCAGUUCUGCCUGUCCCUGAAGUAUGACCAGGAGACAGCCAGUUUCA; value = 0.631
Strand = AGUGUUUUCUUCCCUGUGCCUUAAGGGCCCUCAUCCCAGCAGCCCAUAUAGCCAGCAAAUGGAGGACUCCUAACUUCAGCACAAGUGGGUUUGGAGUGGCAGAGGCCAUA; value = 0.331
Strand = UCAUCAUAGCUGGCACCAGCGCCUAUGCUCGCCUCAUUGACUACGCCCGCAUGAGAGAGGUGUGUGAUGAAGUCAAAGCACACCUGCUGGCAGACAUGGCCCACAUCAGU; value = 1.28
Strand = CAUAAACUCCUCCCUUUGGGAGGCUGGCAAAAAAGGGGCUGUGCUCUCCCUGGUUAAGCAGUUUGUACUACAGAACCCCCGAGCUGCUGUGGGUCCUACAGGUGCUUCCA; value = 0.395
Strand = UGCCACAUUGGUUAAGUGCCAUCAUUUGUAAUGCAAUGUGUCACUUGAAAAGAGAUUUGAAGAAACUGACAACUUCAAAAACAAAUGAGAAGCCCAAGGAACUGUGAGCA; value = 5.5
Strand = UUUCCUGAAGUGUUUAUUUUCUCUCAUAUCCACCAAACGUGAAUCCUGUUCCUGAUGGCCCGUUAUUGGACACUGGUGAUGCUAUUAUCCUGUAUUAUUUAUUAAUAUCC; value = 0.554
Strand = CCCUGAAGAAUCCACAACCAUCCUUCCAAGGUUCUCCAUCCCCACAAUGACUAGCUGUUGCUCUCCAAGCUAAGGGACCAUUCCCUGUCUUAUGCAUAUACGUAAUGUCA; value = 0.425
